# Measurements from different studies.
# pIC50: −log10 of the molar value.
# Cell line: A549
# Observed: cell growth or viability
Structure (SMILES),test,conditions,pIC50
NC(=O)c1ccc(-c2ccccc2Cl)c2c3c([nH]c12)CCC(N)C3 (centres unmarked),,,7.57
Cc1nc(Nc2ccc3c(c2)/C(=C/c2cn(C)c4ccccc24)C(=O)N3C)c2ccccc2n1,MTT,,5.08
O=C(/C=C/c1ccccc1)Nc1cc(-c2ccnc(N3CCC(CO)CC3)c2)ccn1,MTT,72 h,6.64
COc1c(C)c(OCc2ccccc2)c(C)c(OCc2ccccc2)c1C(=O)/C=C/c1ccccc1,SRB,72 h,< 4.30
CO[C@@H](C[C@H]1C(C)=CC[C@@H]2[C@]3(C)C[C@H](O[C@@H]4O[C@@H](C)[C@H](OC(=O)c5cccc(O)c5)[C@@H](O[C@@H]5O[C@H](CO)[C@@H](O)[C@H](O)[C@H]5NC(C)=O)[C@H]4O)[C@@H](O)C(C)(C)[C@H]3CC[C@]21C)[C@H](N)C(=O)O,CCK-8,72 h,5.14
CC(=O)[O][Pt]([NH2])([NH2])([Cl])([Cl])[O]C(=O)CCC(C)C1CCC2C3CCC4CC(O)CCC4(C)C3CCC12C (centres unmarked),MTT,,5.39
CCCCCCCCCC(=O)[O][Pt]([Cl])([Cl])[O]C(=O)CCCCCCCCC.N.N,MTT,,5.94
C=CC(=O)N1CCc2ccc(-n3c(=O)ccc4cnc5ccc(-c6cnn(C)c6)cc5c43)cc21,,,5.56
NC1=C(Cl)C(=O)c2cccc([N+](=O)[O-])c2C1=O,MTT,,4.38
CCCc1cc2cc(-n3nc(C(F)F)c4c3CC(C)(C)CC4=O)cc(N3CCC(O)CC3)c2c(=O)[nH]1,MTS,,5.22
COc1ccc(N2C(=O)CS/C2=N\N=C\c2cccc3cc4ccccc4nc23)cc1,MTT,48 h,4.40

# Some of these lines once more:
Structure (SMILES),test,conditions,pIC50
COc1ccc(N2C(=O)CS/C2=N\N=C\c2cccc3cc4ccccc4nc23)cc1,MTT,48 h,4.40
CC(=O)[O][Pt]([NH2])([NH2])([Cl])([Cl])[O]C(=O)CCC(C)C1CCC2C3CCC4CC(O)CCC4(C)C3CCC12C (centres unmarked),MTT,,5.39
